Experimental data collected from several papers.
Each line is one published result; not all experiments were run side by side. Values joined by “and” are separate records of one study, mostly repeats; a detail may differ.
Partner: itself
B1: ccmK2 1-102 H76N (Synechococcus elongatus, UniProt Q03511); chain MPIAVGMIETLGFPAVVEAADAMVKAARVTLVGYEKIGSGRVTVIVRGDVSEVQASVSAGLDSAKRVAGGEVLSHNIIARPHENLEYVLPIRYTEAVEQFRM
B2: TWNK 43-684 (Homo sapiens, UniProt Q96RR1); chain ETLQALDMPVLPVTATEIRQYLRGHGIPFQDGHSCLRALSPFAESSQLKGQTGVTTSFSLFIDKTTGHFLCMTSLAEGSWEDFQASVEGRGDGAREGFLLSKAPEFEDSEEVRRIWNRAIPLWELPDQEEVQLADTMFGLTKVTDDTLKRFSVRYLRPARSLVFPWFSPGGSGLRGLKLLEAKCQGDGVSYEETTIPRPSAYHNLFGLPLISRRDAEVVLTSRELDSLALNQSTGLPTLTLPRGTTCLPPALLPYLEQFRRIVFWLGDDLRSWEAAKLFARKLNPKRCFLVRPGDQQPRPLEALNGGFNLSRILRTALPAWHKSIVSFRQLREEVLGELSNVEQAAGLRWSRFPDLNRILKGHRKGELTVFTGPTGSGKTTFISEYALDLCSQGVNTLWGSFEISNVRLARVMLTQFAEGRLEDQLDKYDHWADRFEDLPLYFMTFHGQQSIRTVIDTMQHAVYVYDICHVIIDNLQFMMGHEQLSTDRIAAQDYIIGVFRKFATDNNCHVTLVIHPRKEDDDKELQTASIFGSAKASQEADNVLILQDRKLVTGPGKRYLQVSKNRFDGDVGVFPLEFNKNSLTFSIPPKNKARLKKIKDDTGPVAKKPSSGKKGATTQNSEICSGQAPTPDQPDTSKRSK
B3: TGFBI FAS1-4 domain, residues 502-657 A546T (Homo sapiens, UniProt Q15582); chain AGMGTVMDVLKGDNRFSMLVAAIQSAGLTETLNREGVYTVFAPTNETFRALPPRERSRLLGDAKELANILKYHIGDEILVSGGIGALVRLKSLQGDKLEVSLKNNVVSVNKEPVAEPDIMATNGVVHVITNVLQPPANRPQERGDELADSALEIFKQA
B4: cooS 1-639 C41S (Rhodospirillum rubrum, UniProt P31896); chain MTHHDCAHCSSDACATEMLNLAEANSIETAWHRYEKQQPQSGFGSAGLCCRICLKGPCRIDPFGEGPKYGVCGADRDTIVARHLVRMIAAGTAAHSEHGRHIALAMQHISQGELHDYSIRDEAKLYAIAKTLGVATEGRGLLAIVGDLAAITLGDFQNQDYDKPCAWLAASLTPRRVKRLGDLGLLPHNIDASVAQTMSRTHVGCDADPTNLILGGLRVAMADLDGSMLATELSDALFGTPQPVVSAANLGVMKRGAVNIAVNGHNPMLSDIICDVAADLRDEAIAAGAAEGINIIGICCTGHEVMMRHGVPLATNYLSQELPILTGALEAMVVDVQCIMPSLPRIAECFHTQIITTDKHNKISGATHVPFDEHKAVETAKTIIRMAIAAFGRRDPNRVAIPAFKQKSIVGFSAEAVVAALAKVNADDPLKPLVDNVVNGNIQGIVLFVGCNTTKVQQDSAYVDLAKSLAKRNVLVLATGCAAGAFAKAGLMTSEATTQYAGEGLKGVLSAIGTAAGLGGPLPLVMHMGSCVDNSRAVALATALANKLGVDLSDLPLVASAPECMSEKALAIGSWAVTIGLPTHVGSVPPVIGSQIVTKLVTETAKDLVGGYFIVDTDPKSAGDKLYAAIQERRAGLGL
B5: MIB1 417-1006 (Homo sapiens, UniProt Q86YT6); sequence looked up; chain QLLKKLFETQESGDLNEELVKAAANGDVAKVEDLLKRPDVDVNGQCAGHTAMQAASQNGHVDILKLLLKQNVDVEAEDKDGDRAVHHAAFGDEGAVIEVLHRGSADLNARNKRRQTPLHIAVNKGHLQVVKTLLDFGCHPSLQDSEGDTPLHDAISKKRDDILAVLLEAGADVTITNNNGFNALHHAALRGNPSAMRVLLSKLPRPWIVDEKKDDGYTALHLAALNNHVEVAELLVHQGNANLDIQNVNQQTALHLAVERQHTQIVRLLVRAGAKLDIQDKDGDTPLHEALRHHTLSQLRQLQDMQDVGKVDAAWEPSKNTLIMGLGTQGAEKKSAASIACFLAANGADLSIRNKKGQSPLDLCPDPNLCKALAKCHKEKVSGQVGSRSPSMISNDSETLEECMVCSDMKRDTLFGPCGHIATCSLCSPRVKKCLICKEQVQSRTKIEECVVCSDKKAAVLFQPCGHMCACENCANLMKKCVQCRAVVERRVPFIMCCGGKSSEDATDDISSGNIPVLQKDKDNTNVNADVQKLQQQLQDIKEQTMCPVCLDRLKNMIFLCGHGTCQLCGDRMSECPICRKAIERRILLY
B6: Ikbkg 1-355 C54S/K285N (Mus musculus, UniProt O88522); sequence looked up; chain MNKHPWKNQLSEMVQPSGGPAEDQDMLGEESSLGKPAMLHLPSEQGTPETLQRSLEENQELRDAIRQSNQMLRERCEELLHFQVSQREEKEFLMCKFQEARKLVERLSLEKLDLRSQREQALKELEQLKKCQQQMAEDKASVKAQVTSLLGELQESQSRLEAATKDRQALEGRIRAVSEQVRQLESEREVLQQQHSVQVDQLRMQNQSVEAALRMERQAASEEKRKLAQLQAAYHQLFQDYDSHIKSSKGMQLEDLRQQLQQAEEALVAKQELIDKLKEEAEQHNIVMETVPVLKAQADIYKADFQAERHAREKLVEKKEYLQEQLEQLQREFNKLKVGCHESARIEDMRKRHVE
B7: TBK1 1-657 D135N (Homo sapiens, UniProt Q9UHD2); sequence looked up; chain MQSTSNHLWLLSDILGQGATANVFRGRHKKTGDLFAIKVFNNISFLRPVDVQMREFEVLKKLNHKNIVKLFAIEEETTTRHKVLIMEFCPCGSLYTVLEEPSNAYGLPESEFLIVLRDVVGGMNHLRENGIVHRNIKPGNIMRVIGEDGQSVYKLTDFGAARELEDDEQFVSLYGTEEYLHPDMYERAVLRKDHQKKYGATVDLWSIGVTFYHAATGSLPFRPFEGPRRNKEVMYKIITGKPSGAISGVQKAENGPIDWSGDMPVSCSLSRGLQVLLTPVLANILEADQEKCWGFDQFFAETSDILHRMVIHVFSLQQMTAHKIYIHSYNTATIFHELVYKQTKIISSNQELIYEGRRLVLEPGRLAQHFPKTTEENPIFVVSREPLNTIGLIYEKISLPKVHPRYDLDGDASMAKAITGVVCYACRIASTLLLYQELMRKGIRWLIELIKDDYNETVHKKTEVVITLDFCIRNIEKTVKVYEKLMKINLEAAELGEISDIHTKLLRLSSSQGTIETSLQDIDSRLSPGGSLADAWAHQEGTHPKDRNVEKLQVLLNCMTEIYYQFKKDKAERRLAYNEEQIHKFDKQKLYYHATKAMTHFTDECVKKYEAFLNKSEEWIRKMLHLRKQLLSLTNQCFDIEEEVSKYQEYTNELQET
B8: CRYBA1 (Homo sapiens, UniProt P05813-1); sequence looked up; chain METQAEQQELETLPTTKMAQTNPTPGSLGPWKITIYDQENFQGKRMEFTSSCPNVSERSFDNVRSLKVESGAWIGYEHTSFCGQQFILERGEYPRWDAWSGSNAYHIERLMSFRPICSANHKESKMTIFEKENFIGRQWEISDDYPSLQAMGWFNNEVGSMKIQSGAWVCYQYPGYRGYQYILECDHHGGDYKHWREWGSHAQTSQIQSIRRIQQ
B9: BcsB/BcsC TPR1-4 fused to BcsB (Escherichia coli); chain VEAAPTAQQQLLEQVRLGEATHREDLVQQSLYRLELIDPNNPDVVAARFRSLLRQGDIDGAQKQLDRLSQLAPSSNAYKSSRTTMLLSTPDGRQALQQARLQATTGHAEEAVASYNKLFNGAPPEGDIAVEYWSTVAKIPARRGEAINQLKRINADAPGGSGSGSGVQGADAPVVAQNGPSRDVKLTFAQIAPPPGSMVLRGINPNGSIEFGMRSDEVVTKAMLNLEYTPSPSLLPVQSQLKVYLNDELMGVLPVTKEQLGKKTLAQMPINPLFISDFNRVRLEFVGHYQDVCEKPASTTLWLDVGRSSGLDLTYQTLNVKNDLSHFPVPFFDPSDNRTNTLPMVFAGAPDVGLQQASAIVASWFGSRSGWRGQNFPVLYNQLPDRNAIVFATNDKRPDFLRDHPAVKAPVIEMINHPQNPYVKLLVVFGRDDKDLLQAAKGIAQGNILFRGESVVVNEVKPLLPRKPYDAPNWVRTDRPVTFGELKTYEEQLQSSGLEPAAINVSLNLPPDLYLMRSTGIDMDINYRYTMPPVKDSSRMDISLNNQFLQSFNLSSKQEANRLLLRIPVLQGLLDGKTDVSIPALKLGATNQLRFDFEYMNPMPGGSVDNCITFQPVQNHVVIGDDSTIDFSKYYHFIPMPDLRAFANAGFPFSRMADLSQTITVMPKAPNEAQMETLLNTVGFIGAQTGFPAINLTVTDDGSTIQGKDADIMIIGGIPDKLKDDKQIDLLVQATESWVKTPMRQTPFPGIVPDESDRAAETRSTLTSSGAMAAVIGFQSPYNDQRSVIALLADSPRGYEMLNDAVNDSGKRATMFGSVAVIRESGINSLRVGDVYYVGHLPWFERVWYALANHPILLAVLAAISVILLAWVLWRLLRIISRRRLNPDNE
B10: PTDSS2 1-487 (Homo sapiens, UniProt Q9BVG9); sequence looked up; chain MRRGERRDAGGPRPESPVPAGRASLEEPPDGPSAGQATGPGEGRRSTESEVYDDGTNTFFWRAHTLTVLFILTCTLGYVTLLEETPQDTAYNTKRGIVASILVFLCFGVTQAKDGPFSRPHPAYWRFWLCVSVVYELFLIFILFQTVQDGRQFLKYVDPKLGVPLPERDYGGNCLIYDPDNETDPFHNIWDKLDGFVPAHFLGWYLKTLMIRDWWMCMIISVMFEFLEYSLEHQLPNFSECWWDHWIMDVLVCNGLGIYCGMKTLEWLSLKTYKWQGLWNIPTYKGKMKRIAFQFTPYSWVRFEWKPASSLRRWLAVCGIILVFLLAELNTFYLKFVLWMPPEHYLVLLRLVFFVNVGGVAMREIYDFMDDPKPHKKLGPQAWLVAAITATELLIVVKYDPHTLTLSLPFYISQCWTLGSVLALTWTVWRFFLRDITLRYKETRWQKWQNKDDQGSTVGNGDQHPLGLDEDLLGPGVAEGEGAPTPN
B11: HSS (UniProt A0A2P1M5T0); sequence looked up; chain MGDDAIRQNFLDSARSNVFKALESLEGCKKIKGYDFNKGVNHRELLLSMVSTGFQASNLGDAIDVINQMRAWKLSDEPIPENCKEQEKDPKFRDSVRCKVFLGFTSNLISSGVRETIRYLAQHRMIDVLVTTAGGIEEDFIKCLAPTFKGDFSLPGAALRSKGLNRIGNLLVPNDNYCKFEDWIMPIFDKMLEEQLEEKVLWTPSRVIARLGKEINDESSYLYWAYKNKIPVYCPAITDGSIGDMLYFHSFRNPASLIVDIVQDVRNMDDEIVLAGLRKTGIIILGGGLPKHHICNANMMRNGADFAVFINTAQEFDGSDSGARPDEAISWGKIRSTAKHVKVHCDATIAFPLLVAETFAKGKSTWTKYLGYIY
B12: EndoA D265A (Drosophila melanogaster, UniProt Q8T390); sequence looked up; chain MAFAGLKKQINKANQYMTEKMGGAEGTKLDMDFMEMERKTDVTVELVEELQLKTKEFLQPNPTARAKMAAVKGISKLSGQAKSNTYPQPEGLLAECMLTYGKKLGEDNSVFAQALVEFGEALKQMADVKYSLDDNIKQNFLEPLHHMQTKDLKEVMHHRKKLQGRRLDFDCKRRRQAKDDEIRGAEDKFGESLQLAQVGMFNLLENDTEHVSQLVTFAEALYDFHSQCADVLRGLQETLQEKRSEAESRPRNEFVPKTLLDLNLAGGGGGLNEDGTPSHISSSASPLPSPMRSPAKSMAVTPQRQQQPCCQALYDFEPENPGELAFKENDIITLLNRVDDNWFEGAVNGRTGYFPQSYVQVQVPLPNGN
B13: CEACAM5 35-144 (Homo sapiens, UniProt P06731-1); sequence looked up; chain KLTIESTPFNVAEGKEVLLLVHNLPQHLFGYSWYKGERVDGNRQIIGYVIGTQQATPGPAYSGREIIYPNASLLIQNIIQNDTGFYTLHVIKSDLVNEEATGQFRVYPEL
B14: dnaD N70A (Bacillus subtilis, UniProt P39787); chain GSHMKKQQFIDMQEQGTSTIPNLLLTHYKQLGLNETELILLLKIKMHLEKGSYFPTPNQLQEGMSISVEECTARLRMFIQKGFLFIEECEDQNGIKFEKYSLQPLWGKLYEYIQLAQNQTQERKAEGEQKSLYTIFEEEFARPLSPLECETLAIWQDQDQHDAQLIKHALKEAVLSGKLSFRYIDRILFEWKKNGLKTVEQAKIHSQKFRRVQAKQNEPQKEYKRQVPFYNWLEQ
Sequence of UniProt Q39054 (whole entry, looked up): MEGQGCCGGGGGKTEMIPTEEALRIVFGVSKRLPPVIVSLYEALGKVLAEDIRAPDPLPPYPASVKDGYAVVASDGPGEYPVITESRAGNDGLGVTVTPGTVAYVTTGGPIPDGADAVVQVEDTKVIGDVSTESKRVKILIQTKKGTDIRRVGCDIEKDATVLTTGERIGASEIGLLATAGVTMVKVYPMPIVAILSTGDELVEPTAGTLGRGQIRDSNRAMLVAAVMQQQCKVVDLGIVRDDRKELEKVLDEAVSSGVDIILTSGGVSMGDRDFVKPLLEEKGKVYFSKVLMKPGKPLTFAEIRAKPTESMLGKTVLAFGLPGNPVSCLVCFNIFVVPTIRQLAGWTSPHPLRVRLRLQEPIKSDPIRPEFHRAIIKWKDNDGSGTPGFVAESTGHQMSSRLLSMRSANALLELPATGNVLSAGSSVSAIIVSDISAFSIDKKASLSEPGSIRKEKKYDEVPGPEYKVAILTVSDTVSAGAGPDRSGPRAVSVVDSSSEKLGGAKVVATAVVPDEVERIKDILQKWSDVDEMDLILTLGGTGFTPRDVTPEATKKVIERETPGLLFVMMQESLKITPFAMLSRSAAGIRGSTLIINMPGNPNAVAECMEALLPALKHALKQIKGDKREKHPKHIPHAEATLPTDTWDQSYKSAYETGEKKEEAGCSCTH

Molecule	assay	setting	subunits per oligomer
B1 (ccmK2 1-102 H76N)	SEC	–	6
B2 (TWNK 43-684)	SEC	–	6
B3	cross-linking	–	2
CNX1 (Arabidopsis thaliana, UniProt Q39054)	SEC	–	6
B4 (cooS 1-639 C41S)	SEC-MALS	–	2
B5 (MIB1 417-1006)	SEC-MALS	–	2
B6 (Ikbkg 1-355 C54S/K285N)	SEC-MALS	–	2
B7 (TBK1 1-657 D135N)	SEC-MALS	–	2
B8 (CRYBA1)	native MS	11.5 µM, pH 7.5	6 and 4
B9 (BcsB/BcsC TPR1-4 fused to BcsB)	cryo-EM	–	3 and 4
B10 (PTDSS2 1-487)	cryo-EM	–	2
B11 (HSS)	SEC	–	4
B12 (EndoA D265A)	SEC-SAXS	–	2
B13 (CEACAM5 35-144)	SEC	–	2
MRKVVSVRLKEDVLRDVDIYTRKLGLNSRTEFIKQAIEFYIKSKS (SiRe_1373 (Saccharolobus islandicus, UniProt F0NI75); sequence looked up)	SEC	–	2
B14 (dnaD N70A)	SEC	–	2

Repeated from above:
Molecule	assay	setting	subunits per oligomer
B10 (PTDSS2 1-487)	cryo-EM	–	2
MRKVVSVRLKEDVLRDVDIYTRKLGLNSRTEFIKQAIEFYIKSKS (SiRe_1373 (Saccharolobus islandicus, UniProt F0NI75); sequence looked up)	SEC	–	2
